Results of several laboratories.
Compare with care: the assays were run in different laboratories. ± gives the spread as reported.
Cell line: HCT-15

CN1CCC(S(=O)(=O)NC23CCCC(C)(CCC4C2CC4(C)C)C3)CC1 (stereo not shown)
IC50 (cell growth or viability, CCK-8; 72 h): 7.69 µM

CC(C)Cc1ccc(C(C)C(=O)[O][Pt]([NH2])([NH2])([Cl])([Cl])[O]C(=O)C(Cl)Cl)cc1 (stereo not shown)
IC50 (cell growth or viability, MTT; 72 h): 0.65 µM

[Cl][Cu-][c]1n(-c2c(C(c3ccccc3)c3ccccc3)cc(C(c3ccccc3)c3ccccc3)cc2C(c2ccccc2)c2ccccc2)c2c([n+]1-c1c(C(c3ccccc3)c3ccccc3)cc(C(c3ccccc3)c3ccccc3)cc1C(c1ccccc1)c1ccccc1)-c1cccc3cccc-2c13
IC50 (cell growth or viability, MTT; 72 h): > 50 µM

CCCC(CCC)C(=O)[O][Pt]([NH2])([NH2])([Cl])([Cl])[O]C(=O)C(Cl)Cl
IC50 (cell growth or viability, MTT; 72 h): 3.11 µM

NC1CCCCC1N.O=C(CCCc1ccccc1)[O][Pt]1([O]C(=O)CCCc2ccccc2)[O]C(=O)C(=O)[O]1
IC50 (cell growth; 72 h): 12.5 ± 1.13 µM

CN1CCN(C(=O)c2cn(C34CCCC(C)(CCC5C3CC5(C)C)C4)nn2)CC1 (stereo not shown)
IC50 (cell growth or viability, CCK-8; 72 h): 17.5 µM

C[C@H](CCC=O)[C@@H]1CC[C@]2(C)C3=C(CC[C@@]12C)[C@@]1(C)CC[C@H](O)C(C)(C)[C@@H]1CC3
IC50 (cell growth or viability, SRB): 39 µM

CCCC(CCC)C(=O)[O][Pt]([Cl])([Cl])[O]C(=O)C(CCC)CCC.N.N
IC50 (cell growth; 72 h): 0.81 ± 0.12 µM

CC12CCCC(n3cc(C(=O)N4CC(N)C4)nn3)(C1)C1CC(C)(C)C1CC2 (stereo not shown)
IC50 (cell growth or viability, CCK-8; 72 h): 15.3 µM

CCCC(CCC)C(=O)[O][Pt]1([O]C(=O)C(CCC)CCC)[O]C(=O)C(=O)[O]1.NC1CCCCC1N
IC50 (cell growth; 72 h): 16.4 ± 1.63 µM

CC1CNCCN1C(=O)c1cn(C23CCCC(C)(CCC4C2CC4(C)C)C3)nn1 (stereo not shown)
IC50 (cell growth or viability, CCK-8; 72 h): 12.3 µM

N.N.O=C(CCCc1ccccc1)[O][Pt]([Cl])([Cl])[O]C(=O)CCCc1ccccc1
IC50 (cell growth; 72 h): 0.31 ± 0.04 µM

CC(C)c1cccc(C(C)C)c1-n1ccn(-c2c(C(C)C)cccc2C(C)C)c1=[Se].[Cl][Au]
IC50 (cell growth or viability, MTT; 72 h): 8.3 µM

O=C(O)CCCc1ccccc1
IC50 (cell growth or viability; 72 h): 1210 µM

Cc1cc(C)c(-n2c3c([n+](-c4c(C)cc(C)cc4C)[c]2[Cu-][Cl])-c2cccc4cccc-3c24)c(C)c1
IC50 (cell growth or viability, MTT; 72 h): 9 µM

Cc1c(C)n(-c2c(C(C)C)cccc2C(C)C)c(=[Se])n1-c1c(C(C)C)cccc1C(C)C.[Cl][Ag]
IC50 (cell growth or viability, MTT; 72 h): 2.2 µM

Cc1cc(C)c(-n2c3c([n+](-c4c(C)cc(C)cc4C)[c]2[Au-][Cl])-c2cccc4cccc-3c24)c(C)c1
IC50 (cell growth or viability, MTT; 72 h): 17 µM

CC1CN(C(=O)c2cn(C34CCCC(C)(CCC5C3CC5(C)C)C4)nn2)CCN1 (stereo not shown)
IC50 (cell growth or viability, CCK-8; 72 h): 11.2 µM

CC(C)c1cccc(C(C)C)c1-n1c(Cl)c(Cl)n(-c2c(C(C)C)cccc2C(C)C)c1=[Se].[Cl][Ag]
IC50 (cell growth or viability, MTT; 72 h): 2.3 µM

C=C[CH2][Pd-]([Cl])[Cl].Cc1cc(C)c(-n2c[n+](-c3c(C)cc(C)cc3C)c3c2-c2cccc4cccc-3c24)c(C)c1
IC50 (cell growth or viability, MTT; 72 h): 3 µM

CCCC(CCC)C(=O)[O][Pt]([NH2])([NH2])([Cl])([Cl])[O]C(=O)C(C)c1ccc(CC(C)C)cc1 (stereo not shown)
IC50 (cell growth or viability, MTT; 72 h): 3.98 µM

CC(C)c1cccc(C(C)C)c1N1CCN(c2c(C(C)C)cccc2C(C)C)C1=[Se].[Cl][Ag]
IC50 (cell growth or viability, MTT; 72 h): 3.9 µM

Excerpt of the above:
Cc1c(C)n(-c2c(C(C)C)cccc2C(C)C)c(=[Se])n1-c1c(C(C)C)cccc1C(C)C.[Cl][Ag]
IC50 (cell growth or viability, MTT; 72 h): 2.2 µM
